Experimental data pooled from the literature.
± marks the error that the study gave.

SMILES	assay	test system	conditions	scale	endpoint	value
C=C(c1cc(F)c(C(=O)O)c(F)c1)c1cc2c(cc1C)C(C)(C)CCC2(C)C	RNA sequencing, item: Dlx2 mRNA	rat, brain	dose not given, 24 h, single dose	reference: vehicle	log2 fold change	0.92
CC[C@H]1[C@@H](O)[C@@H]2[C@H](CC[C@]3(C)[C@@H]([C@H](C)CCOS(=O)(=O)[O-])CC[C@@H]23)[C@@]2(C)CC[C@@H](O)C[C@@H]12.[Na+]	–	ob/ob NASH mice, plasma	oral, 10 mg/kg once daily, baseline before treatment, 8 wk study	–	plasma total cholesterol	11.1 ± 0.3 mmol/L
O=C(O)c1ccc(/C=C2\SC(=S)N(Cc3cccc(C(F)(F)F)c3)C2=O)cc1	–	Nlrp3-/- mouse, Listeria infection	40 mg/kg	–	IL-1β production	no effect
CCCC[C@@H]1NC(=O)[C@H](Cc2ccc(O)cc2)NC(=O)[C@@H]2CCCN2C(=O)[C@H](CC(=O)O)NC(=O)[C@H](C)NC(=O)[C@H](Cc2ccccc2)NC(=O)[C@@H]2CSCCC(=O)N3CN(CN(C3)C(=O)CCSC[C@@H](C(=O)N[C@@H](C)C(N)=O)NC1=O)C(=O)CCSC[C@H](NC(C)=O)C(=O)N[C@@H](CC(C)(C)C)C(=O)N1CCC[C@H]1C(=O)N[C@@H](CCC(=O)O)C(=O)N[C@H](CCCCNC(=O)CCc1cn(CCOCCOCCOCCN(CCOCCOCCOCCC(=O)N[C@H]3CSCCC(=O)N4CN5CN(C4)C(=O)CCSC[C@H](NC(=O)[C@@H](CC(=O)O)NC(=O)[C@H](Cc4cccc6ccccc46)NC(=O)[C@@H]4CCCN4C3=O)C(=O)N[C@@H](CCSC)C(=O)N[C@@H](CCCCNC(=N)N)C(=O)N[C@@H](CC(=O)O)C(=O)N[C@@H](Cc3c[nH]c4ccccc34)C(=O)N[C@@H](CO)C(=O)N[C@@H]([C@@H](C)O)C(=O)N3CCC[C@H]3C(=O)N3C[C@H](O)C[C@H]3C(=O)N[C@@H](Cc3c[nH]c4ccccc34)C(=O)N[C@H](C(N)=O)CSCCC5=O)CCOCCOCCOCCn3cc(CCC(=O)NCCCC[C@H]4NC(=O)[C@H](CCC(=O)O)NC(=O)[C@@H]5CCCN5C(=O)[C@H](CC(C)(C)C)NC(=O)[C@@H](NC(C)=O)CSCCC(=O)N5CN6CN(C5)C(=O)CCSC[C@H](NC(=O)[C@H](Cc5ccc(O)cc5)NC(=O)[C@@H]5CCCN5C4=O)C(=O)N[C@@H](Cc4ccccc4)C(=O)N[C@@H](C)C(=O)N[C@@H](CC(=O)O)C(=O)N4CCC[C@H]4C(=O)N[C@@H](Cc4ccc(O)cc4)C(=O)N[C@@H](CCCC)C(=O)N[C@H](C(=O)N[C@@H](C)C(N)=O)CSCCC6=O)nn3)nn1)C(=O)N1CCC[C@H]1C(=O)N[C@@H](Cc1ccc(O)cc1)C(=O)N2	–	mouse, MC38-Nectin-4 syngeneic tumour	1.5 to 5 mg/kg twice weekly	–	tumour-free mice	80 to 100%
CCOC(=O)C(Cc1cccc(O)c1)OC(=O)C=Cc1ccc(O)c(O)c1C=Cc1ccc(O)c(O)c1 (stereo not drawn)	–	C57 wild-type mice, isoproterenol-induced myocardial ischemia, serum	oral, 10 mg/kg pretreatment for 7 days, with: isoproterenol 3 mg/kg	reference: normal group	serum AST level	115 ± 10%
O/N=C/c1cnn(-c2ccccc2)n1	prothrombin time	human plasma	10 µM	–	clotting time	15.2 ± 0.5 s
CC(=O)c1cnc(N)nc1N1CC[C@H]1c1nn2ccc(Cl)c2c(=O)n1-c1ccccc1	anti-IgD B cell activation, item: CD86	rat, blood	oral, 1 mg/kg, up to 24 h	–	inhibition	~40%
Cc1cc(Nc2cc3ncccc3c(N[C@@H]3C[C@H]4CC[C@@H](C3)N4CCC#N)n2)n[nH]1	–	moderate-severe ulcerative colitis patients	80 mg, day 28	reference: patients	endoscopic response	20%
O=S(=O)(c1ccccc1)N(CCc1nnc(S)o1)c1ccc(Cl)cc1	–	rat	200 mg/kg, 3 h, with: carrageenan	–	paw edema inhibition	47.4%
CC(C)[C@H](NC(=O)CN)C(=O)N[C@@H](CCCCN)C(=O)NCC(=O)N[C@@H](CC(=O)O)C(=O)N[C@@H](CCCCN)C(=O)NCC(=O)N[C@@H](CC(N)=O)C(=O)N1CCC[C@H]1C(=O)NCC(=O)N[C@@H](Cc1c[nH]c2ccccc12)C(=O)N1CCC[C@H]1C(=O)NCC(=O)N[C@@H](C)C(=O)N1CCC[C@H]1C(=O)O	–	K1735 M4 melanoma, mouse	10 µg/mL coating, 30 to 40 min, 37 °C, peptide-coated plates	reference: input cells	cell adhesion	~35%
CCC1CC2C(C)=CC3C(=O)CCCC3C=CC(C)=CC2C(=O)O1 (stereo not drawn)	dot blot	5XFAD transgenic mouse, cortex	oral, 30 mg/kg/day three times per week, 1 month	reference: vehicle	total soluble Aβ reduction	49.7%
O=C(O)C1OC(OC2C(COS(=O)(=O)O)OC(OC3C(C(=O)O)OC(OC4C(COS(=O)(=O)O)OC(OC5C(C(=O)O)OC(OC6C(COS(=O)(=O)O)OC(OC7C(C(=O)O)OC(OC8C(COS(=O)(=O)O)OC(OC9C(C(=O)O)OC(OC%10C(COS(=O)(=O)O)OC(OC%11C(C(=O)O)OC(Oc%12ccc([N+](=O)[O-])cc%12)C(O)C%11O)C(NS(=O)(=O)O)C%10O)C(OS(=O)(=O)O)C9O)C(NS(=O)(=O)O)C8O)C(OS(=O)(=O)O)C7O)C(NS(=O)(=O)O)C6O)C(OS(=O)(=O)O)C5O)C(NS(=O)(=O)O)C4O)C(OS(=O)(=O)O)C3O)C(NS(=O)(=O)O)C2OS(=O)(=O)O)C(O)C(O)C1OC1OC(COS(=O)(=O)O)C(O)C(O)C1NS(=O)(=O)O (stereo not drawn)	–	BERK sickle cell mice, plasma	subcutaneous, 2.0 mg/kg every 8 h for 7 days	–	plasma TAT complexes	decreased
